# Results collected from several papers.
# Lines come from different studies, so protocols differ. ± gives the spread as reported.
# U2AF2: U2AF2 148-342 (Homo sapiens, UniProt P26368)
# Chain of UniProt P26368 (whole entry, looked up): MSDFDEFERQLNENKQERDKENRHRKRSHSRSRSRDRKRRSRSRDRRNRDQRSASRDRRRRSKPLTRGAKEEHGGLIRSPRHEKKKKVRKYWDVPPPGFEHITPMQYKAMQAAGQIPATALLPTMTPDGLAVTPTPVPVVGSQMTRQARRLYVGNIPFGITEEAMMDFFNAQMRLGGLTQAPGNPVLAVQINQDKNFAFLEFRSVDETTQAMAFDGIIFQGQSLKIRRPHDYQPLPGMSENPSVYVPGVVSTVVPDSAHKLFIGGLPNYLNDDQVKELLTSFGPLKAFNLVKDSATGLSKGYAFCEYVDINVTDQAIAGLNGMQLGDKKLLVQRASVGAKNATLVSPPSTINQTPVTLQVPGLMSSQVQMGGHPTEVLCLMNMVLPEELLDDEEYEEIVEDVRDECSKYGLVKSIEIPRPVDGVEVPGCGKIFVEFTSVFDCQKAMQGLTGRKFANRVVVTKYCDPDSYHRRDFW
# B1: STAT1 (human); sequence looked up; chain SQWYELQQLDSKFLEQVHQLYDDSFPMEIRQYLAQWLEKQDWEHAANDVSFATIRFHDLLSQLDDQYSRFSLENNFLLQHNIRKSKRNLQDNFQEDPIQMSMIIYSCLKEERKILENAQRFNQAQSGNIQSTVMLDKQKELDSKVRNVKDKVMCIEHEIKSLEDLQDEYDFKCKTLQNREHETNGVAKSDQKQEQLLLKKMYLMLDNKRKEVVHKIIELLNVTELTQNALINDELVEWKRRQQSACIGGPPNACLDQLQNWFTIVAESLQQVRQQLKKLEELEQKYTYEHDPITKNKQVLWDRTFSLFQQLIQSSFVVERQPCMPTHPQRPLVLKTGVQFTVKLRLLVKLQELNYNLKVKVLFDKDVNERNTVKGFRKFNILGTHTKVMNMEESTNGSLAAEFRHLQLKEQKNAGTRTNEGPLIVTEELHSLSFETQLCQPGLVIDLETTSLPVVVISNVSQLPSGWASILWYNMLVAEPRNLSFFLTPPCARWAQLSEVLSWQFSSVTKRGLNVDQLNMLGEKLLGPNASPDGLIPWTRFCKENINDKNFPFWLWIESILELIKKHLLPLWNDGCIMGFISKERERALLKDQQPGTFLLRFSESSREGAITFTWVERSQNGGEPDFHAVEPYTKKELSAVTFPDIIRNYKVMAAENIPENPLKYLYPNIDKDHAFGKYYSRPKEAPEPMELDGPKGTGYIKTELISVSEVHPSRLQTTDNLLPMSPEEFDEVSRIVGSVEFDSMMNTV
# B2: peripherin, human; sequence looked up; chain MSHHPSGLRAGFSSTSYRRTFGPPPSLSPGAFSYSSSSRFSSSRLLGSASPSSSVRLGSFRSPRAGAGALLRLPSERLDFSMAEALNQEFLATRSNEKQELQELNDRFANFIEKVRFLEQQNAALRGELSQARGQEPARADQLCQQELRELRRELELLGRERDRVQVERDGLAEDLAALKQRLEEETRKREDAEHNLVLFRKDVDDATLSRLELERKIESLMDEIEFLKKLHEEELRDLQVSVESQQVQQVEVEATVKPELTAALRDIRAQYESIAAKNLQEAEEWYKSKYADLSDAANRNHEALRQAKQEMNESRRQIQSLTCEVDGLRGTNEALLRQLRELEEQFALEAGGYQAGAARLEEELRQLKEEMARHLREYQELLNVKMALDIEIATYRKLLEGEESRISVPVHSFASLNIKTTVPEVEPPQDSHSRKTVLIKTIETRNGEVVTESQKEQRSELDKSSAHSY
# Chain of UniProt P13393 (whole entry, looked up): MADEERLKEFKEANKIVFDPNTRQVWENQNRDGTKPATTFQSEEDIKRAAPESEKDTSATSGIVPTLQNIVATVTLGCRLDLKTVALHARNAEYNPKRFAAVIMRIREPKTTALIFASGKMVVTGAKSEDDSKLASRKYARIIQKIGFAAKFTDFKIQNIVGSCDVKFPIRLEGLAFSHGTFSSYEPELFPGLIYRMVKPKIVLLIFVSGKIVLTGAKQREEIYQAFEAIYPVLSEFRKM
Molecule,tested on,assay,system,setting,scale,measurement,result
human RGPD8,CYB5R4 knockout human cells,"PP6 interaction, 3xFLAG-PP6C IP-MS",,concentration not given,baseline: CYB5R4 KO over parental,log2 fold change,0.81
YLEPIYLEY,Jurkat expressing engineered TCR,"NFAT-eGFP reporter, fluorescence microscopy",peptide,"concentration not given, HLA-A*01:01 on EL4 cells",,GFP-positive cells,0.467%
B1 (STAT1),CYB5R4 knockout human cells,"PP4 interaction, 3xFLAG-PP4C IP-MS",,concentration not given,baseline: CYB5R4 KO over parental,log2 fold change,1.08
monocyte chemoattractant protein-1,THP-1 monocytes,"chemoattractant, transwell migration",,"30 ng/mL, 15 h",,monocyte migration,increased
recombinant human interleukin-1 beta,enteroid monolayers,"RT-qPCR, refers to: ABCC1",,"10 ng/mL, 48 h",,decrease in mRNA level,45 to 50%
human RNA helicase DHX34,CYB5R4 knockout human cells,"PP4 interaction, 3xFLAG-PP4C IP-MS",,concentration not given,baseline: CYB5R4 KO over parental,log2 fold change,-0.16
UUUGUACAU (ssRNA),U2AF2,sequencing of bound RNA,RNA,motif only,,Kd,2.55 µM
DNA 1 GATCGATCGATCGATCGATCGATCGATCGATCGATTCAATTCAATCGGTCC / DNA 2 GGACCGATTGACTTGAATCGATCGATCGATCGATCGATCGATCGATCGATC (dsDNA; 5'-amino-C6 primer),"SPT15 full length assumed (Saccharomyces cerevisiae, UniProt P13393)",array,double-stranded DNA,TBP alone,,Kd,0.0451 ± 0.00504 µM
epoetin alfa,UT7/EPO,"RT-qPCR, refers to: MYC",,"concentration not given, 90 min, normalized to HPRT1",baseline: vehicle,mRNA level,2.8 fold
UAUUUCUGU (ssRNA),U2AF2,sequencing of bound RNA,RNA,motif only,,Kd,1.35 µM
catalase,HT-29,"western blot, refers to: p27",,"concentration not given, 48 h",,protein level,increased
Peginesatide,UT7/EPO,"tyrosine phosphorylation, LC-MS/MS phosphoproteomics, trypsin, refers to: SHC1 tyrosine 427",,"10 nM, 15 min, with: 10 U/mL EPO",baseline: vehicle,phosphorylation level,14.7 fold
EVDPIGLEF,Jurkat expressing engineered TCR,"NFAT-eGFP reporter, fluorescence microscopy",peptide,"concentration not given, HLA-A*01:01 on EL4 cells",,GFP-positive cells,0.624%
MTVCNASQRQAHAQATAVSL,H1648,phage binding,peptide,,baseline: targeting over control phage,selectivity ratio,4.1 ± 2
human IGHG1,CYB5R4 knockout human cells,"PP4 interaction, 3xFLAG-PP4C IP-MS",,concentration not given,baseline: CYB5R4 KO over parental,log2 fold change,2.02
QINPIGHEY,Jurkat expressing engineered TCR,"NFAT-eGFP reporter, fluorescence microscopy",peptide,"concentration not given, HLA-A*01:01 on EL4 cells",,GFP-positive cells,0.583%
YEQDPWGVKWWY,mouse bone marrow-derived macrophages,"qPCR, refers to: Cd206",peptide,"concentration not given, with: IL-4",,mRNA level,decreased
ETDPIGHEF,Jurkat expressing engineered TCR,"NFAT-eGFP reporter, fluorescence microscopy",peptide,"concentration not given, HLA-A*01:01 on EL4 cells",,GFP-positive cells,6%
human RAB7A,CYB5R4 knockout human cells,"PP4 interaction, 3xFLAG-PP4C IP-MS",,concentration not given,baseline: CYB5R4 KO over parental,log2 fold change,2.56
YGRKKRRQRRRAQLQLDPETGEFLPIQ,SH-SY5Y Neh2-luc reporter,,peptide,,baseline: wild-type peptide over mutant,EC50 fold improvement,2 to 3 fold
MVDPIGMHY,Jurkat NFAT-eGFP expressing engineered TCR,NFAT reporter gene,peptide,"concentration not given, HLA-A*01:01 presentation",,GFP-positive cells,0.619%
"B2 (peripherin, human)",CYB5R4 knockout human cells,"PP4 interaction, 3xFLAG-PP4C IP-MS",,concentration not given,baseline: CYB5R4 KO over parental,log2 fold change,-0.23

# Excerpt of the above:
Molecule,tested on,assay,system,setting,scale,measurement,result
B1 (STAT1),CYB5R4 knockout human cells,"PP4 interaction, 3xFLAG-PP4C IP-MS",,concentration not given,baseline: CYB5R4 KO over parental,log2 fold change,1.08
human RNA helicase DHX34,CYB5R4 knockout human cells,"PP4 interaction, 3xFLAG-PP4C IP-MS",,concentration not given,baseline: CYB5R4 KO over parental,log2 fold change,-0.16
DNA 1 GATCGATCGATCGATCGATCGATCGATCGATCGATTCAATTCAATCGGTCC / DNA 2 GGACCGATTGACTTGAATCGATCGATCGATCGATCGATCGATCGATCGATC (dsDNA; 5'-amino-C6 primer),"SPT15 full length assumed (Saccharomyces cerevisiae, UniProt P13393)",array,double-stranded DNA,TBP alone,,Kd,0.0451 ± 0.00504 µM
